Measurements of several laboratories.
A part holds a random share of what one study measured.
Chain of UniProt Q13283 (whole entry, looked up): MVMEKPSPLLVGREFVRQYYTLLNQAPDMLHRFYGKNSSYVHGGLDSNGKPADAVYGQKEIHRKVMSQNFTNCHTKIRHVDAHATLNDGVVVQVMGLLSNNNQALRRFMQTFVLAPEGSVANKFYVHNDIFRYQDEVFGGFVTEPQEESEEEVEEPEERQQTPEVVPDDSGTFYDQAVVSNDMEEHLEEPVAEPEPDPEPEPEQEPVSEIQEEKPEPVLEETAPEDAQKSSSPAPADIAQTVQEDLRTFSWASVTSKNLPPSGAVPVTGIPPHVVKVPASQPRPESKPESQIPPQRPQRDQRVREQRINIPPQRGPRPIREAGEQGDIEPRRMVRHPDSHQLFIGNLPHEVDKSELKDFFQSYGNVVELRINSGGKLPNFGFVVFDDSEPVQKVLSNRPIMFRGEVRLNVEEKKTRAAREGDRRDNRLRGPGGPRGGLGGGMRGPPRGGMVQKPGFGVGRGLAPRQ

Set 1
Target: Centromere-binding protein 1, full length, N-terminal tag (CBF1, Saccharomyces cerevisiae, UniProt P17106, residues 1-351)
Chain of UniProt P17106 (whole entry, looked up): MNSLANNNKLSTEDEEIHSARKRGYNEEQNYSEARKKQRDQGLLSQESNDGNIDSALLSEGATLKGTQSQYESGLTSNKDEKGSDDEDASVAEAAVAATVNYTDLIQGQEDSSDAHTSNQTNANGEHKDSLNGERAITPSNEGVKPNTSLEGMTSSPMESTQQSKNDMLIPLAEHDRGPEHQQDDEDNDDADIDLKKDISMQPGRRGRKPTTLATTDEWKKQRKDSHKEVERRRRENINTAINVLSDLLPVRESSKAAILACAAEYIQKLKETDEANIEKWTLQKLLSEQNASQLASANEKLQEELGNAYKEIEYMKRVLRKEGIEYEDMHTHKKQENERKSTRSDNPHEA
Method: protein-binding microarray
Molecule type: double-stranded DNA, one strand shown
Sample: in vitro
Tested at: 0.8 µM
Setting: whole 60-bp probe, no competitor
Direction: higher = stronger binding
Strand	fluorescence intensity [a.u.]
CTAACACAAAGTAGTGATGACCCACTCAGGTGTTTCGTCTTGATTCGCTTGACGCTGCTG	539
GAACTTTCCCTTTCACTCGTGCGGTTTTACCAGTAGGTCTTGATTCGCTTGACGCTGCTG	533
GAAGTGGTTATTGATCACCAGAAAGTTTGGCATTAGGTCTTGATTCGCTTGACGCTGCTG	543

Other studies, line by line
Fmr1 C-terminal low-complexity region: Fragile X messenger ribonucleoprotein 1, C-terminal low-complexity region (Fmr1, Mus musculus, UniProt P35922)
IRF7 S471D/S472D/S475D/S476D/S477D/S483D/S484D/S487D full length, phosphomimetic: Interferon regulatory factor 7, full length, phosphomimetic (IRF7, Homo sapiens, UniProt Q92985, residues 1-503, S471D/S472D/S475D/S476D/S477D/S483D/S484D/S487D)
Chain of UniProt Q92985 (whole entry, unmodified, looked up): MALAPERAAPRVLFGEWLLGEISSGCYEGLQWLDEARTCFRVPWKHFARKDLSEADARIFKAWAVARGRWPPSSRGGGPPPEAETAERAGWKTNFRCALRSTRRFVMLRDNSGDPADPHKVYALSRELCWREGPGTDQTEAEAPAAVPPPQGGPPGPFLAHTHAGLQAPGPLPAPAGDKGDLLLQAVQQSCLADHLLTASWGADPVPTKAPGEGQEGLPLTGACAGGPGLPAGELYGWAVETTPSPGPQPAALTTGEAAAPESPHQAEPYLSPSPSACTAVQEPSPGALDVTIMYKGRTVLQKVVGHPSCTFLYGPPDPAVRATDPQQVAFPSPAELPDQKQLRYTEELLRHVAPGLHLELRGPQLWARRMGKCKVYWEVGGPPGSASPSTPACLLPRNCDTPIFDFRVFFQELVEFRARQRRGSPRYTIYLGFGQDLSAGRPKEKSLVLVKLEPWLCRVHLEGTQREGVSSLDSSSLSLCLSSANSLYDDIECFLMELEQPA
Substance	target	assay	test system	conditions	how to read	measurement	value
GGGAGUUCUACAGUCCGACGAUCUCUGUUUCCUCUGCCAGUGGCAAUGCAACACCUAACACUCCUGGGGAUGAGUCUCCCUGUGGUAUUAUUAUUCCUCAUGAAAACUCACCAUGGAAUUCUCGGGUGUCAAGG	Fmr1 C-terminal low-complexity region	RNA Bind-n-Seq	RNA, in vitro	200 nM, whole 134-nt RNA, ends assumed, with: 150 mM KCl	relative to: input library, higher = stronger binding	log2 enrichment	0.38
GCCTAGCACGACGGTTTCGGACTGTGGACGTGCTAGGTCTTGATTCGCTTGACGCTGCTG	IRF7 S471D/S472D/S475D/S476D/S477D/S483D/S484D/S487D full length, phosphomimetic	protein-binding microarray	double-stranded DNA, one strand shown, in vitro	2200 nM top, 60-bp whole probe, with: salmon DNA 0.4 mg/ml	relative to: random background probes, higher = stronger binding	fitted relative affinity	3.98 z-score
GGGAGUUCUACAGUCCGACGAUCCAAGUCCUGUGCUACACAUCGUAUGUACCGAAUCGGGAGGGUGGGAAAAAAAGGGAAAGUAUUAUGUUACGCCGUUCGGAUCUGCACUUCUGGAAUUCUCGGGUGUCAAGG	Ras GTPase-activating protein-binding protein 1, RRM domain (G3BP1, Homo sapiens, UniProt Q13283)	RNA Bind-n-Seq	RNA, in vitro	1 µM, whole 134-nt RNA, ends assumed, with: 150 mM KCl	relative to: input library, higher = stronger binding	log2 enrichment	0.539
GCCTAGCACTTAGGTATCCTTCGCCTTTAGTGCTAGGTCTTGATTCGCTTGACGCTGCTG	IRF7 S471D/S472D/S475D/S476D/S477D/S483D/S484D/S487D full length, phosphomimetic	protein-binding microarray	double-stranded DNA, one strand shown, in vitro	2200 nM top, 60-bp whole probe, with: salmon DNA 0.4 mg/ml	relative to: random background probes, higher = stronger binding	fitted relative affinity	0.925 z-score
GGGAGUUCUACAGUCCGACGAUCGUCCUGUGCUACACAUCGUAUGUACCGAAUCGGGUUUUUGGGGUUUUUGGGUUUUUGGAAAGUAUUAUGUUACGCCGUUCGGAUCUGCACUGGAAUUCUCGGGUGUCAAGG	Fmr1 C-terminal low-complexity region	RNA Bind-n-Seq	RNA, in vitro	200 nM, whole 134-nt RNA, ends assumed, with: 150 mM KCl	relative to: input library, higher = stronger binding	log2 enrichment	0.118
PhoQ, residues 284 288 289 292 302 303 AQGLTV	PhoP, residues 12 14 15 18 19 GQAIL (Escherichia coli, UniProt P23836)	Sort-seq, measured: YFP reporter	E. coli	PhoQ-PhoP variant library, with: 10 µM Mg2+	relative to: high Mg2+ state, higher = stronger signaling	fold induction	1.77

For quick reference, copied from above (other studies, line by line):
Substance	target	assay	test system	conditions	how to read	measurement	value
GGGAGUUCUACAGUCCGACGAUCCAAGUCCUGUGCUACACAUCGUAUGUACCGAAUCGGGAGGGUGGGAAAAAAAGGGAAAGUAUUAUGUUACGCCGUUCGGAUCUGCACUUCUGGAAUUCUCGGGUGUCAAGG	Ras GTPase-activating protein-binding protein 1, RRM domain (G3BP1, Homo sapiens, UniProt Q13283)	RNA Bind-n-Seq	RNA, in vitro	1 µM, whole 134-nt RNA, ends assumed, with: 150 mM KCl	relative to: input library, higher = stronger binding	log2 enrichment	0.539
